Assay results from different studies.
Parts stem from different laboratories: compare values within a part only. Several values in a cell are separate wells, animals, samples, runs or records.
Chain of UniProt Q6XUX3 (whole entry, looked up): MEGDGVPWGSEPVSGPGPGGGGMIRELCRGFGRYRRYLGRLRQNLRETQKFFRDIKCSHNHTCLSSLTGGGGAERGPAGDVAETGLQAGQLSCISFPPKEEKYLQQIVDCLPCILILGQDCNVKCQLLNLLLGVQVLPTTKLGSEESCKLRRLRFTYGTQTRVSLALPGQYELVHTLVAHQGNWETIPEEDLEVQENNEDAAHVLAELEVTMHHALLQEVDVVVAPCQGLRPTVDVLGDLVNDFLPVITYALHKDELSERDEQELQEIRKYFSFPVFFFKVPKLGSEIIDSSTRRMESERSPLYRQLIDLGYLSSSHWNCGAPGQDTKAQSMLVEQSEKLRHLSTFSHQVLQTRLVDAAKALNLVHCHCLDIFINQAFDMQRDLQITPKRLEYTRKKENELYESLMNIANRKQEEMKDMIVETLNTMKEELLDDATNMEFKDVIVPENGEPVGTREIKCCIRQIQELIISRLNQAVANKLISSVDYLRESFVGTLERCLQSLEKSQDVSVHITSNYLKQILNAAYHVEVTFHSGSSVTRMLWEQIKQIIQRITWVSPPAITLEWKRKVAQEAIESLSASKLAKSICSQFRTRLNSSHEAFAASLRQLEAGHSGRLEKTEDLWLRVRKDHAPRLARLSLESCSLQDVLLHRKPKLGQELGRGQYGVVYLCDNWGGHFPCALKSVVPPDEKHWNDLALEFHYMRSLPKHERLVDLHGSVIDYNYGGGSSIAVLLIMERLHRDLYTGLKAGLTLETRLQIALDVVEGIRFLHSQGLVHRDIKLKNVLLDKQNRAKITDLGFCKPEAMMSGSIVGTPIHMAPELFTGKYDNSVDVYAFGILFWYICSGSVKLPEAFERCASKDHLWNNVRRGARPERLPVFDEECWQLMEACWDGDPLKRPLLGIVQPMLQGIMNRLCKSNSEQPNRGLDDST
Chain of UniProt Q8TF76 (whole entry, looked up): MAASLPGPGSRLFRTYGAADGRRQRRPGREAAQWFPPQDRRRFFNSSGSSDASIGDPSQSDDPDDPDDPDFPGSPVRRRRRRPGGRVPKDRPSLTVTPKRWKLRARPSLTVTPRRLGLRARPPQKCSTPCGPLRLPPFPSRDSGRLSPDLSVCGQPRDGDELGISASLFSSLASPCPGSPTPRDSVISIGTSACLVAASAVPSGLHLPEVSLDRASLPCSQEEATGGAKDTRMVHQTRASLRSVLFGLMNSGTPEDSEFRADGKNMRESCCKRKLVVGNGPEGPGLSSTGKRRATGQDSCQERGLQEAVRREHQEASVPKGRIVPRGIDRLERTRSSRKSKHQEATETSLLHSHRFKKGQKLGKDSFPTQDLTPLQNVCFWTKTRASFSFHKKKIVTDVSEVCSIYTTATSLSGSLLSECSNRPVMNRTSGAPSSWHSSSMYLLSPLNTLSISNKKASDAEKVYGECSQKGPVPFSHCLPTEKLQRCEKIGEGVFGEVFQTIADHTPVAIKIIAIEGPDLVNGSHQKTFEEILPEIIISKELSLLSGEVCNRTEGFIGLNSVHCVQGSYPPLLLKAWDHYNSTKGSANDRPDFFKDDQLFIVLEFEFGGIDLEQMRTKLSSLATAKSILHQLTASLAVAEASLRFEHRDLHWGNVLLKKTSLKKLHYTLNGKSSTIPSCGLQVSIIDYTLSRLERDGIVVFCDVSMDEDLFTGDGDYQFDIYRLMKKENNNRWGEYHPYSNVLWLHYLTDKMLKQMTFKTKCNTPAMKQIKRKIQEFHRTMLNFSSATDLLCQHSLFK
Chain of UniProt P17948 (whole entry, looked up): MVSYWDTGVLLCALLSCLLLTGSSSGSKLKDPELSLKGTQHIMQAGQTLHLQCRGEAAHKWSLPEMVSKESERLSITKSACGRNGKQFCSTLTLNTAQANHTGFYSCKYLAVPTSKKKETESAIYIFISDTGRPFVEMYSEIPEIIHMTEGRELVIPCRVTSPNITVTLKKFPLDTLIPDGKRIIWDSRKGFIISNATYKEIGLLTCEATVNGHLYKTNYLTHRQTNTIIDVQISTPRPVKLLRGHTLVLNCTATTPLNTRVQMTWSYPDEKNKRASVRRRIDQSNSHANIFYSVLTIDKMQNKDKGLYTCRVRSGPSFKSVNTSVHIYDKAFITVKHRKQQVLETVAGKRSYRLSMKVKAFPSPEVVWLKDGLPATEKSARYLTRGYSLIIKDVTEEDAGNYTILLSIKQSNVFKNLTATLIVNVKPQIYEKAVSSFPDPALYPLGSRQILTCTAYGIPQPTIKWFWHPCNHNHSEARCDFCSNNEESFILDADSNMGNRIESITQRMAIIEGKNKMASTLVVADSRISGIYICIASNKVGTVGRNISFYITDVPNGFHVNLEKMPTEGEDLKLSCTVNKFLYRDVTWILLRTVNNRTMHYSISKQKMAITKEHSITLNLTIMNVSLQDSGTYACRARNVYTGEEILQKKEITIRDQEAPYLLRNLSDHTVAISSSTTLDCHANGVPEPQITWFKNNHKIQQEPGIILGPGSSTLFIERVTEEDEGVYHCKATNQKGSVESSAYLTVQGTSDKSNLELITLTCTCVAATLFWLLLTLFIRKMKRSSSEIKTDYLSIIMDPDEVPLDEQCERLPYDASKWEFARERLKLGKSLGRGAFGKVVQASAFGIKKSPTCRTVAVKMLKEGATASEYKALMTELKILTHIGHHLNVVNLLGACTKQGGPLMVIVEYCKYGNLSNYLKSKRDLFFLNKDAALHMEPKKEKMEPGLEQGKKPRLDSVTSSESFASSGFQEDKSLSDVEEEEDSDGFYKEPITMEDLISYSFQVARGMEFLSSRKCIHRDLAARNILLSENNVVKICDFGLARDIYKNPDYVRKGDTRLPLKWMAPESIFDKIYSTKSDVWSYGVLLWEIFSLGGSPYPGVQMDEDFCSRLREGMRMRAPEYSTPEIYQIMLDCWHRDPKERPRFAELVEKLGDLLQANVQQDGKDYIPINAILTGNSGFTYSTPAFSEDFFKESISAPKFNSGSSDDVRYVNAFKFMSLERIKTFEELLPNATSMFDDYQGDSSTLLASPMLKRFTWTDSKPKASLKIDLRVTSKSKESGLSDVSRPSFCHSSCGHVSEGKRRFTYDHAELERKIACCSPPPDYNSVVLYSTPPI
Chain of UniProt Q13705 (whole entry, looked up): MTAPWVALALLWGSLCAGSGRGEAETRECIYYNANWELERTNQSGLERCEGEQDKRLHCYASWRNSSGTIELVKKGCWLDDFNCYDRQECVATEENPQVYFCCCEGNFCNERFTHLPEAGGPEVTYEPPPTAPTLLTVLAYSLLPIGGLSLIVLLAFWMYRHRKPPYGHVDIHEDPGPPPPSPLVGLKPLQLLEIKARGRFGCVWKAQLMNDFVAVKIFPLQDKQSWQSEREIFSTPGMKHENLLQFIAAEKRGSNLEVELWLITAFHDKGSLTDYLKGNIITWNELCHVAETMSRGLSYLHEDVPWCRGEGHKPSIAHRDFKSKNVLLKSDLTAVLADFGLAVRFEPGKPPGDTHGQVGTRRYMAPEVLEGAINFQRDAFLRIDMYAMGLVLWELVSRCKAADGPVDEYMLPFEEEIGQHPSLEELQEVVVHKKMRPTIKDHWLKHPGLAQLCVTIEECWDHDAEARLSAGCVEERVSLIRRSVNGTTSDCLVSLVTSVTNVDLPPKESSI
Chain of UniProt Q6ZWH5 (whole entry, looked up): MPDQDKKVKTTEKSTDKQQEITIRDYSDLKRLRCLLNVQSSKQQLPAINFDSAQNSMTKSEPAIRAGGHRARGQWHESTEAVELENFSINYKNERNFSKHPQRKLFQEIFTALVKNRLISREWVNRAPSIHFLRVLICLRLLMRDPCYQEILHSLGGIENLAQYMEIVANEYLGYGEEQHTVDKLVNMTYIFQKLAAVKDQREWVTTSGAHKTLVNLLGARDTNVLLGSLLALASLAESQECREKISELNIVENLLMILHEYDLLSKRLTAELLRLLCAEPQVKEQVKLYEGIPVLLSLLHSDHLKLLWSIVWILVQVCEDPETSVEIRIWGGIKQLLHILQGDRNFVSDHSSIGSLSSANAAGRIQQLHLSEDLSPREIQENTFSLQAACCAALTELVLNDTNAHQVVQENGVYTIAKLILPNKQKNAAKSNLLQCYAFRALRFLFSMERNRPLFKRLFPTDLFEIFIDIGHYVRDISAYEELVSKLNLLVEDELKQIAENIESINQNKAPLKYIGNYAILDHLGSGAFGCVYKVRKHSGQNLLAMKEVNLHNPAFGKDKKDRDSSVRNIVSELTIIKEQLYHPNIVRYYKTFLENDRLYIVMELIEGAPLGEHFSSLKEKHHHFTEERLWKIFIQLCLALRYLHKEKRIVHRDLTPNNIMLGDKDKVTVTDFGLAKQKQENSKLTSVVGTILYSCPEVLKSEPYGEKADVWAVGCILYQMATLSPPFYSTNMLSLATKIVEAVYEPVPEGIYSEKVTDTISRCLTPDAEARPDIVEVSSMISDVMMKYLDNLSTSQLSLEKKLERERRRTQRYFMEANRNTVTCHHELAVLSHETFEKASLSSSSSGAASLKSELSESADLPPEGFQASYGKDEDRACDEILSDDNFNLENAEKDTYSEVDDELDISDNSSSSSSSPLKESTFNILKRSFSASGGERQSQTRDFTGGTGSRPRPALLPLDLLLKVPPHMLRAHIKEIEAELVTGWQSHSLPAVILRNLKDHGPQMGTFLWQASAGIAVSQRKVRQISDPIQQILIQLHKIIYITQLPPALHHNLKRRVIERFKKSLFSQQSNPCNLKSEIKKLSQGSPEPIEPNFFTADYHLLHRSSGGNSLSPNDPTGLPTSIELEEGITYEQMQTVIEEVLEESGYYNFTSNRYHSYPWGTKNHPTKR

Sample 1 — notes: trial; quantity: patients discontinuing for adverse event
Structure (SMILES): CC(C)n1cnc(-c2ccc(F)cc2)c1-c1ncc(C(=O)Nc2ccc(N3CCN(C)CC3)cc2)[nH]1
Host: patients with idiopathic pulmonary fibrosis
item: hepatic dysfunction; 60 mg once daily: 5.6%
item: elevated ALT or AST; 30 mg twice daily: 5.6%
item: acute IPF exacerbation; 60 mg once daily: 5.6%
item: drug-induced liver injury; 30 mg twice daily: 11.1%

Sample 2 — read-out: cell-free assay; method: competition with immobilised ligand; concentration: 1 µM; quantity: remaining binding
Compound: CCCCN(CCCC)C(=O)CN1C[C@H](c2cc(OC)c3c(c2)OCO3)[C@@H](C(=O)O)[C@@H]1CC(C)(C)CCC
DSTYK (Homo sapiens, UniProt Q6XUX3): 68.6%
FLT1 (Homo sapiens, UniProt P17948): 100%
ACVR2B (Homo sapiens, UniProt Q13705): 100%
HASPIN (Homo sapiens, UniProt Q8TF76): 75.8%
NEK10 (Homo sapiens, UniProt Q6ZWH5): 57.4%

Sample 3 — read-out: enzyme activity; action: inhibitor; concentration: 0.5 µM; baseline: control; quantity: remaining activity
Target: Cyclin-dependent kinase 5, with p35 (CDK5, Homo sapiens, UniProt Q00535)
Chain of UniProt Q00535 (whole entry, looked up): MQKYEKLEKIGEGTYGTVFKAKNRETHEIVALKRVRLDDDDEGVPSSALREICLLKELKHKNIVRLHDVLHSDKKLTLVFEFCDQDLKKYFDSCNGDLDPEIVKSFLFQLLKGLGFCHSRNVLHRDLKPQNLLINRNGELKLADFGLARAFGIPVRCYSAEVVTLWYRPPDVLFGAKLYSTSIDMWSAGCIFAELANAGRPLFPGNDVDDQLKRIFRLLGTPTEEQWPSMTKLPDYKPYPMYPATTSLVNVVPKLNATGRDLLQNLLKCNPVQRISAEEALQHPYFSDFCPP
CC(C)[C@H](CO)Nc1nc(Nc2cc(N)cc(Cl)c2)c2ncn(C(C)C)c2n1: 0.133%
O=c1c2ccccc2[nH]c(=S)n1CCN1CCC(=C(c2ccc(F)cc2)c2ccc(F)cc2)CC1: 101%
COc1ccc(CNC(=O)Nc2ncc([N+](=O)[O-])s2)cc1: 96.4%
Cc1cccc(-c2[nH]c(C(C)(C)C)nc2-c2ccc3c(c2)OCO3)n1: 98.5%
N#CC(C#N)=C(N)/C(C#N)=C/c1ccc(O)cc1: 91.9%
CNC(=O)c1cc(Oc2ccc(NC(=O)Nc3ccc(Cl)c(C(F)(F)F)c3)cc2)ccn1: 99.9%
Cc1nc(-c2ccccc2)c(-c2ccncc2)o1: 104%
CN(C)c1ccc(C=C2C(=O)Nc3ccccc32)cc1: 104%
COc1ccc(C(=O)Nc2sc3c(c2C(N)=O)CCCC3)cc1OC: 90.8%
O=C(CCCc1ccc(-c2ccccc2F)cc1)Nc1ccc(O)cc1: 92.5%
Cn1c2ccccc2c2c3c(c4c5ccccc5n(CCC#N)c4c21)CNC3=O: 8.52%
O=C1NC(=O)C(c2cn(CCCO)c3ncccc23)=C1c1cnccn1: 73.9%
O=C(Nc1cccc(Nc2cc(Nc3cccc(C(F)(F)F)c3)ncn2)c1)C1CC1: 99.5%
O=C1NC(=O)C(c2cn(CCCn3ccnc3)c3ccccc23)=C1Nc1ccccc1: 91.4%

Sample 4 — read-out: AlphaScreen signal; method: AlphaScreen counter screen; medium: His6 peptide without bromodomain; concentration: 50 µM; notes: assay interference check; quantity: inhibition
COc1ccc(Nc2nc(N)c(C(=O)c3ccc(OC)cc3)s2)cc1: 73.1%
O=C(CSc1ccc2nnc(-c3cccc(F)c3)n2n1)N1CCCC1: 17.6%
CN1C=CC=CC1=C(C#N)c1nc2ccccc2s1: 66.7%
O=C1Nc2ccc(S(=O)(=O)O)cc2C1=C1Nc2ccccc2C1=NO: 76.2%

Further values, each from its own experiment
CC(=O)N[C@@H](Cc1c[nH]c2ccccc12)C(=O)N[C@@H](CCC(=O)C=[N+]=[N-])C(=O)OC(C)C  pyridoxamine level (UPLC-MS/MS; EL4 tumor, C57BL/6 CES1-/- mice, tumor; subcutaneous, 0.3 mg/kg DON equivalent daily, 5 days; higher = more metabolite): 3.28e+06 a.u. and 2.25e+06 a.u. and 5.69e+06 a.u. and 2.48e+06 a.u. and 4.95e+06 a.u. and 3.42e+06 a.u.

A few entries again (further values, each from its own experiment):
CC(=O)N[C@@H](Cc1c[nH]c2ccccc12)C(=O)N[C@@H](CCC(=O)C=[N+]=[N-])C(=O)OC(C)C  pyridoxamine level (UPLC-MS/MS; EL4 tumor, C57BL/6 CES1-/- mice, tumor; subcutaneous, 0.3 mg/kg DON equivalent daily, 5 days; higher = more metabolite): 3.28e+06 a.u. and 2.25e+06 a.u. and 5.69e+06 a.u. and 2.48e+06 a.u. and 4.95e+06 a.u. and 3.42e+06 a.u.
